Experimental data gathered from unrelated publications.
Lines come from different studies, so protocols differ.

CC(C)(C)NC(=O)C1CCN(Cc2ccc(/N=N/c3ccccc3)cc2)CC1 — absorption maximum, cis isomer (DMSO; 25 µM, 25 °C): 439 nm
COc1cc(-c2[o+]c3cc(O)cc(O)c3cc2O[C@@H]2O[C@H](CO)[C@@H](O)[C@H](O)[C@H]2O)cc(O)c1O — absorption maximum (buffer without protein; 50 µM, pH 7): 568 nm
CC1=NN(c2ccc(C)c(C)c2)C(=O)/C1=N\Nc1cccc(-c2cccc(C(=O)O)c2)c1O — absorption rate constant (Ka) (compartmental model; healthy subjects, plasma; oral, 75 mg): 1.02 h⁻¹
CNC(=O)c1c(C)oc2cc(Oc3ncnc4cc(OC)c(OC)cc34)ccc12 — absorption rate constant ka (final population PK model; cancer patient weighing sample A kg; oral, no proton pump inhibitor): 2.52 h⁻¹
COC(=O)c1ccccc1-c1c2ccc(=N)cc-2oc2c1ccc1cccc(O)c12.Cl — absorption maximum (12.5 mM aqueous NaOH; pH 12.1, 10% DMSO): 621 nm
CC(C)(C)NC(=O)C1CCN(Cc2cccc(/N=N/c3cccc(F)c3)c2)CC1 — absorption maximum, trans isomer (DMSO; 25 µM, 25 °C): 329 nm
OC[C@H]1O[C@@H](Oc2cc3c(O)cc(O)cc3[o+]c2-c2cc(O)c(O)c(O)c2)[C@H](O)[C@@H](O)[C@@H]1O — absorption maximum (buffer without protein; 50 µM, pH 7): 568 nm
Cn1cncc1-c1c(F)cncc1NC(=O)c1c(N)nn2cc(F)cnc12 — absorption rate constant ka (population PK model; patients with solid tumours, plasma; oral, 270 mg once daily): 0.441 h⁻¹
OC[C@H]1O[C@@H](Oc2cc3c(O)cc(O)cc3[o+]c2-c2ccc(O)cc2)[C@H](O)[C@@H](O)[C@@H]1O — absorption maximum (buffer without protein; 50 µM, pH 7): 533 nm
CC[C@@H]1CN(C(=O)NCC(F)(F)F)C[C@@H]1c1cnc2cnc3[nH]ccc3n12 — absorption lag time (population PK model; healthy, RA and CD subjects, plasma; oral, immediate-release formulation): 0.469 h
CC(C)(C)NC(=O)C1CCN(Cc2cccc(/N=N/c3ccc(C(F)(F)F)cc3)c2)CC1 — absorption maximum, trans isomer (DMSO; 25 µM, 25 °C): 326 nm
COc1ccc2c(c1)sc(-c1ccc(N(C)C)cc1)[n+]2C — absorption maximum wavelength (PBS; free dye): 414 nm
CC(C)(C)NC(=O)C1CCN(Cc2ccc(/N=N/c3ccc(F)cc3)cc2)CC1 — absorption maximum, cis isomer (DMSO; 25 µM, 25 °C): 437 nm
CC1(C)C(/C=C/C2=C(Cl)C(=C/C=C3\N(CCCCCC(=O)O)c4ccccc4C3(C)C)/CCC2)=[N+](CCCCCC(=O)O)c2ccccc21 — absorption maximum (methanol): 781 nm
